Measured values pooled from the literature.
Parts stem from different laboratories: compare values within a part only. Values joined by “and” are separate records of one study, mostly repeats; a detail may differ.
Sequence of UniProt P36896 (whole entry, looked up): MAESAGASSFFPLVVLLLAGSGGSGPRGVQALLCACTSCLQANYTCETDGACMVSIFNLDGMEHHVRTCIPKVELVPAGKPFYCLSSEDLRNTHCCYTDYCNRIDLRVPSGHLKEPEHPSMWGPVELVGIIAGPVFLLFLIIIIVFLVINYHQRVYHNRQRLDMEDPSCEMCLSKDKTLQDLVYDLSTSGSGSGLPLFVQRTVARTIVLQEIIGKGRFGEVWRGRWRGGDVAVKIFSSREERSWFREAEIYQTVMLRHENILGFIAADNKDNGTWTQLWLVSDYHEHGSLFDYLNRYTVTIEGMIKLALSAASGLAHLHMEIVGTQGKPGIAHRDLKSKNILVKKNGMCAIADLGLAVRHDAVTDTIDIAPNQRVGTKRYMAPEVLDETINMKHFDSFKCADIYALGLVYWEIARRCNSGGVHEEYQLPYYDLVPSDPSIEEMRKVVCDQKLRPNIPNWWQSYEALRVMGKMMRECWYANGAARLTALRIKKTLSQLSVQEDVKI
Sequence of UniProt P19525 (whole entry, looked up): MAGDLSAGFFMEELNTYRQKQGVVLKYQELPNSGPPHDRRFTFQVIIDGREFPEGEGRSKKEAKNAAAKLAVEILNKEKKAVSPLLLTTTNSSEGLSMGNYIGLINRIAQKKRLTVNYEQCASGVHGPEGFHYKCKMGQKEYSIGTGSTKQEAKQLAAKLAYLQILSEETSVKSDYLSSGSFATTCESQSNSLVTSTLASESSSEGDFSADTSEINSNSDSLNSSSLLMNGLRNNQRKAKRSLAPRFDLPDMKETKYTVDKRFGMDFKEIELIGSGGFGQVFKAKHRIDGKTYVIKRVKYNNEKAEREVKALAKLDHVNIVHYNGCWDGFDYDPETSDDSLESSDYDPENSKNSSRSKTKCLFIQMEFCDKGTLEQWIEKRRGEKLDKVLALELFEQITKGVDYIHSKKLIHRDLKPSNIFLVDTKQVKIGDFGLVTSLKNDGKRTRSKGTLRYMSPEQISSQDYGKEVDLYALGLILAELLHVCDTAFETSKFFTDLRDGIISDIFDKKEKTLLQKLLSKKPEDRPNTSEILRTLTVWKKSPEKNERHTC
Sequence of UniProt Q9UK32 (whole entry, looked up): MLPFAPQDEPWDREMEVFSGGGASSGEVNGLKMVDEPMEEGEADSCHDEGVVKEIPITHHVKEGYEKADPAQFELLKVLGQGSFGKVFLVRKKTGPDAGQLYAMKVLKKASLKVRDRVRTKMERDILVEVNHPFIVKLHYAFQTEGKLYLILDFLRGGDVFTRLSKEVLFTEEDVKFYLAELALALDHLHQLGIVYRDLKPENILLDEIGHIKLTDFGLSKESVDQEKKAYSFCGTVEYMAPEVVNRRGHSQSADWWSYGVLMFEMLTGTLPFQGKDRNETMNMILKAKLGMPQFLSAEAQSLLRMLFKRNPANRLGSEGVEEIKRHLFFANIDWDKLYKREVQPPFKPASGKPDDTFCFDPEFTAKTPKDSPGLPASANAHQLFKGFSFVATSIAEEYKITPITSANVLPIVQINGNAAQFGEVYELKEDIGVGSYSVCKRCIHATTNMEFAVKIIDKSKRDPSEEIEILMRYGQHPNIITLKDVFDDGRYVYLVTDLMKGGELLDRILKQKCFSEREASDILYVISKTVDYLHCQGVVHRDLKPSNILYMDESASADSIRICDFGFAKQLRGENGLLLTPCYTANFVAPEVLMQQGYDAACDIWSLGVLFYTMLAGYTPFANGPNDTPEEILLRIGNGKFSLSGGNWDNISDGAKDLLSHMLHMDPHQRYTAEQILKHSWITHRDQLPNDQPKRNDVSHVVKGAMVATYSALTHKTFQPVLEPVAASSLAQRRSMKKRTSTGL
Sequence of UniProt Q9HBH9 (whole entry, looked up): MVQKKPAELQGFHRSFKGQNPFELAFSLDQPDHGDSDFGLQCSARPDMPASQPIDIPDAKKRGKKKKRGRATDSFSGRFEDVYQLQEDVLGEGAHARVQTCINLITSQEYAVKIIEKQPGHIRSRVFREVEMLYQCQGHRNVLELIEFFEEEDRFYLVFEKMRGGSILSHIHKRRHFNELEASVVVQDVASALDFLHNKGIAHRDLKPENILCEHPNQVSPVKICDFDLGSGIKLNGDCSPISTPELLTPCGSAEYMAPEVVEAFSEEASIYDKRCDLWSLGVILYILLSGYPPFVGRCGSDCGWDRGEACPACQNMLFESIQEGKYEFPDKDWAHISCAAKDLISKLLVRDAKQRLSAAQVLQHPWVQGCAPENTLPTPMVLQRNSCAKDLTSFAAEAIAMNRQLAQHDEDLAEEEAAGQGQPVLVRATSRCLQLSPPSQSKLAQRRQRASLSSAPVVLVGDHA
Sequence of UniProt O15111 (whole entry, looked up): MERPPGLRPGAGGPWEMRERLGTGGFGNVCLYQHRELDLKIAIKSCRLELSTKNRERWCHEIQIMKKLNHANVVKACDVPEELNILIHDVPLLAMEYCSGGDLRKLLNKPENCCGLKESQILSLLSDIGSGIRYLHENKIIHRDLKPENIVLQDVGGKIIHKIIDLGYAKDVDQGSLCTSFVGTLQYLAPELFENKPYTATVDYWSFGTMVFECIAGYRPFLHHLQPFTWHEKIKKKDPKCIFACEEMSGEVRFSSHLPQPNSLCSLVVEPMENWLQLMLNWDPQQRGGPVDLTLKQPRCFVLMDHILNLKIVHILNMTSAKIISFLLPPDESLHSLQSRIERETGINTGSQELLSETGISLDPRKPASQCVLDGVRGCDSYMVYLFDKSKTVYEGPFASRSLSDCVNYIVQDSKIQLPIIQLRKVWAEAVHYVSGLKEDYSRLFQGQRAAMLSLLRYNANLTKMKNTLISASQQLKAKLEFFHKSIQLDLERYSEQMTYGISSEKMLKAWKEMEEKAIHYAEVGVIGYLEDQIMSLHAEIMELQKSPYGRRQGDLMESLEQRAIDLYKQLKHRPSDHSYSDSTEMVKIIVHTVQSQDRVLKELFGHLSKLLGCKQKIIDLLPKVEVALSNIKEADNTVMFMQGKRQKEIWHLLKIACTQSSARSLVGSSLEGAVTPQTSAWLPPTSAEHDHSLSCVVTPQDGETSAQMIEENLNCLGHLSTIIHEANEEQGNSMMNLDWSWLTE
Sequence of UniProt P42336 (whole entry, unmodified, looked up): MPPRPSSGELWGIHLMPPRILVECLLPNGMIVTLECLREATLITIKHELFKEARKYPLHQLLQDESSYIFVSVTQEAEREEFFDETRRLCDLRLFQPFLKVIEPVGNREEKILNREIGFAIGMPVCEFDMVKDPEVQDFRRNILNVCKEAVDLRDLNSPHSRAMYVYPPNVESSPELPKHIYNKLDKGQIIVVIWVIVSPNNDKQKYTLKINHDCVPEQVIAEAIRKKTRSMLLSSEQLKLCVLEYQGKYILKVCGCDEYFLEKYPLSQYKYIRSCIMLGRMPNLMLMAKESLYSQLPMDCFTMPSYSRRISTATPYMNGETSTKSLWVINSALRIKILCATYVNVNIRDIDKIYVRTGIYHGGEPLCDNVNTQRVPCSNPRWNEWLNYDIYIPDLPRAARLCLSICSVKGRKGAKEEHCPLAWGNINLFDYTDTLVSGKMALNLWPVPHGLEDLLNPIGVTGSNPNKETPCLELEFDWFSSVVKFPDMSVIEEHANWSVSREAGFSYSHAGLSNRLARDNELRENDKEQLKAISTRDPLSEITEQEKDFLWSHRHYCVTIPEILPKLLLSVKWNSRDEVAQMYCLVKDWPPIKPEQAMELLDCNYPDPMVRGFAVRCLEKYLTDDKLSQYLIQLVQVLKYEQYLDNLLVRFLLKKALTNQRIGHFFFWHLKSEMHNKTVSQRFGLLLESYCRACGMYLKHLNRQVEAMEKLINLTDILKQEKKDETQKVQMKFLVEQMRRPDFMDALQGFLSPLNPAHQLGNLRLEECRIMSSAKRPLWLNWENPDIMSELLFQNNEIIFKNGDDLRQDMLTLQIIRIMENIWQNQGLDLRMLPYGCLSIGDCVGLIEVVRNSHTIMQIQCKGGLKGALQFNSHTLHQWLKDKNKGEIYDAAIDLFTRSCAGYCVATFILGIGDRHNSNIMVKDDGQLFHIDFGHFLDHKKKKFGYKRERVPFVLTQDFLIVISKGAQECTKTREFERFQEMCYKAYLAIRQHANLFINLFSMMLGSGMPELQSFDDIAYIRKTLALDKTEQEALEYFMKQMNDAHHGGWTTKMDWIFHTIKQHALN

Series 1 — technique: RNA Bind-n-Seq; molecule type: RNA; sample: in vitro; concentration: 200 nM; setting: whole 134-nt RNA, ends assumed; with: 150 mM LiCl; reference: input library; reading: higher = stronger binding; each molecule: 7-deaza-guanosine replaces G
Target: Ras GTPase-activating protein-binding protein 1, full length (G3BP1, Homo sapiens, UniProt Q13283)
Sequence of UniProt Q13283 (whole entry, looked up): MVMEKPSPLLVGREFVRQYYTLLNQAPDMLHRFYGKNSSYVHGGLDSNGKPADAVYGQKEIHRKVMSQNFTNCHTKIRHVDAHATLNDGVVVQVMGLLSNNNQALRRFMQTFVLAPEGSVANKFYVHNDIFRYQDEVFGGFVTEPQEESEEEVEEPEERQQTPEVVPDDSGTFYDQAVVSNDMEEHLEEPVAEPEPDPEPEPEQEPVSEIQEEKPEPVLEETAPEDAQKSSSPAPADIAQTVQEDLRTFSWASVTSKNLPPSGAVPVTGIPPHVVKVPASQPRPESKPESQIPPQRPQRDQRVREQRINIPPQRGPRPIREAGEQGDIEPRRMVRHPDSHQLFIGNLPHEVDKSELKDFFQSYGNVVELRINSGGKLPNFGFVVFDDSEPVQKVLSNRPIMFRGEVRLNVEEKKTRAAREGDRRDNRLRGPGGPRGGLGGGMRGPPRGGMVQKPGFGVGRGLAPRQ
Constant ends, left off below: GGGAGUUCUACAGUCCGACGAUC … UGGAAUUCUCGGGUGUCAAGG
Oligonucleotide | log2 enrichment
CUCAAGUCCUGUGCUACACAUCGUAUGUACCGAAUCGGGCCGGGCCGGGGCCGGAAAGUAUUAUGUUACGCCGUUCGGAUCUGCACUUCC | 0.571
UAACUUUAGAGGAGGAUCUGAUGGAUAUGGCAGUGGACGUGUAUUUGGGGAUGGCUAUAAUGGGUAUGGAGGAGGACCUGGAGGUGGCAA | -0.0103
AGUCCUGUGCUACACAUCGUAUGUACCGAAUCGGGUUUUUGGGAGGGUUUUUUUGGGAAAGUAUUAUGUUACGCCGUUCGGAUCUGCACU | -0.672
UCCUGUGCUACACAUCGUAUGUACCGAAUCAAAUUUAAAUUUUUUUAAAUUUUUUUAAAAAAGUAUUAUGUUACGCCGUUCGGAUCUGCA | -2.57
CAAGUCCUGUGCUACACAUCGUAUGUACCGAAUCGGGGCCGGGGCCGGGGCCGGGAAAGUAUUAUGUUACGCCGUUCGGAUCUGCACUUC | -0.249
CCUGUGCUACACAUCGUAUGUACCGAAUCGGGAAAAAAAGGGUUUUUUUGGGUUUUUGGGAAAGUAUUAUGUUACGCCGUUCGGAUCUGC | -2.65
GCAGGAAGUAAAAACAAAUGGAAAUGCUUCGGAUAGUGGCAGGGGUGGGGGUUGCUAAAAAAAGGGUGGGAUGGGAGUGGGUAAAGAGUU | 0.108
AGUCCUGUGCUACACAUCGUAUGUACCGAAUCGGGUUUGGGAAAGGGAAAAAAAGGGAAAGUAUUAUGUUACGCCGUUCGGAUCUGCACU | -0.286

Series 2 — read-out: cell-free assay; technique: competition with immobilised ligand; concentration: 1 µM
Compound: N#CC1(c2ccccn2)CCN(Cc2cc(C(=O)N3CCCC3)c(=O)n3ccccc23)CC1
target | remaining binding [%]
MAP kinase-interacting serine/threonine-protein kinase 2 (MKNK2, Homo sapiens, UniProt Q9HBH9) | 96
Cyclin-dependent kinase 15 (CDK15, Homo sapiens, UniProt Q96Q40) | 85
Inhibitor of nuclear factor kappa-B kinase subunit alpha (CHUK, Homo sapiens, UniProt O15111) | 94
Serine/threonine-protein kinase 10 (STK10, Homo sapiens, UniProt O94804) | 95
Serine/threonine-protein kinase 16 (STK16, Homo sapiens, UniProt O75716) | 100
Phosphatidylinositol 4,5-bisphosphate 3-kinase catalytic subunit alpha isoform (PIK3CA, Homo sapiens, UniProt P42336, Q546K) | 94
Interferon-induced, double-stranded RNA-activated protein kinase (EIF2AK2, Homo sapiens, UniProt P19525) | 100
Activin receptor type-1B (ACVR1B, Homo sapiens, UniProt P36896) | 69
Serine/threonine-protein kinase Sgk2 (SGK2, Homo sapiens, UniProt Q9HBY8) | 100
Epidermal growth factor receptor (EGFR, Homo sapiens, UniProt P00533, del747-752/P753S) | 67
Serine/threonine-protein kinase D3 (PRKD3, Homo sapiens, UniProt O94806) | 100
Serine/threonine-protein kinase/endoribonuclease IRE1 (ERN1, Homo sapiens, UniProt O75460) | 100
Ribosomal protein S6 kinase alpha-6, C-terminal kinase domain (RPS6KA6, Homo sapiens, UniProt Q9UK32) | 91
Discoidin domain-containing receptor 2 (DDR2, Homo sapiens, UniProt Q16832) | 100

Series 3 — cell line: A-375; concentration: 100 µM; time: 60 h
Compound | viability
C=C(c1ccc(C(=O)O)cc1)c1cc2c(cc1C)C(C)(C)CCC2(C)C | 5.66%
O=C(O)CN(CCN(CC(=O)O)CC(=O)O)CC(=O)O | 101%
CC(CCc1ccc(O)cc1)NCC(O)c1ccc(O)cc1 (centres unmarked) | 110%
O=C(O)Cc1ccc(-c2ccccc2)cc1 | 98.8%

Series 4 — read-out: enzyme activity; action: inhibitor; concentration: 0.5 µM; reference: control
Target: MAP kinase-interacting serine/threonine-protein kinase 1 (MKNK1, Homo sapiens, UniProt Q9BUB5)
Sequence of UniProt Q9BUB5 (whole entry, looked up): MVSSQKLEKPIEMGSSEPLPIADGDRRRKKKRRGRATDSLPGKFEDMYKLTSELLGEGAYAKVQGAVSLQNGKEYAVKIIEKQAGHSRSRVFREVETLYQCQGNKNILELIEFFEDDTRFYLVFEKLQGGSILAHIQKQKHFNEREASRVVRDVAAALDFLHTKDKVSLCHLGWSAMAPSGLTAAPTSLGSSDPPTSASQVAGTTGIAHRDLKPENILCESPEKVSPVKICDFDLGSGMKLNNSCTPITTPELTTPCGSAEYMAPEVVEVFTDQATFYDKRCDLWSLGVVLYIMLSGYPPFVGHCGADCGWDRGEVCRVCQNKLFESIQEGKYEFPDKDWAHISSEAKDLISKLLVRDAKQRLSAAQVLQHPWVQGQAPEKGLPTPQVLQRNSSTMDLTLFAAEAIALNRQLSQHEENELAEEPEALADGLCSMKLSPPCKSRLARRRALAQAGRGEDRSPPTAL
Structure (SMILES) | remaining activity [%]
O=C1Nc2ccccc2/C1=C\c1c(Cl)[nH]c2ccccc12 | 105
CN(C)S(=O)(=O)c1ccc2c(c1)/C(=C/c1cc3c([nH]1)CCCC3)C(=O)N2 | 108
Oc1cccc(-c2nc(N3CCOCC3)c3oc4ncccc4c3n2)c1 | 102
O=c1cc(N2CCOCC2)oc2c(-c3ccccc3)cccc12 | 103
O=C1NC(=O)c2c1c1c3ccccc3[nH]c1n1cncc21 | 56.3

Mixed results
Compound | target or system | test | test system | setting | scale | quantity | result
Cc1cc2c(C(N)=O)c(N)n(-c3c(C)ccc(O)c3C)c2nc1C | HCC1569 | CDK1 phosphorylation, Jess capillary immunoassay, refers to: CDK1 phospho-Thr14 | – | 24 h | – | IC50 | 0.0361 µM
CC(C)S(=O)(=O)c1ccc2nccc(Nc3ccc4sc(C5CCCC5)nc4c3)c2c1.Cl | L929 | caspase activity, Ac-DEVD-pNA absorbance | – | 50 µM, 2 h | higher = more activity | caspase-3 activity | 0.013 a.u. and 0.053 a.u. and 0.016 a.u. and 0.029 a.u.
COc1ccc(-c2c(Nc3ccccn3)[nH]c3c(C4=CCCCC4)c(-c4ccccc4)nn3c2=O)cc1 | – | – | human, plasma | oral, 400 mg once daily | – | elimination rate constant | 0.0307 h⁻¹ and 0.0382 h⁻¹ and 0.0305 h⁻¹ and 0.0747 h⁻¹
CC(C)n1cnc(-c2ccc(F)cc2)c1-c1ncc(C(=O)Nc2ccc(N3CCN(C)CC3)cc2)[nH]1 | – | phase 2a clinical trial | patients with idiopathic pulmonary fibrosis | 30 mg once daily | – | patients with ALP increased TEAE | 0%

Excerpt of the above (series 4):
Structure (SMILES) | remaining activity [%]
CN(C)S(=O)(=O)c1ccc2c(c1)/C(=C/c1cc3c([nH]1)CCCC3)C(=O)N2 | 108
Oc1cccc(-c2nc(N3CCOCC3)c3oc4ncccc4c3n2)c1 | 102
O=c1cc(N2CCOCC2)oc2c(-c3ccccc3)cccc12 | 103
